Experimental data pooled from the literature.
Every numbered part comes from another study and shows a few of its results, in no order.
Sequence of UniProt Q8WXR4 (whole entry, looked up): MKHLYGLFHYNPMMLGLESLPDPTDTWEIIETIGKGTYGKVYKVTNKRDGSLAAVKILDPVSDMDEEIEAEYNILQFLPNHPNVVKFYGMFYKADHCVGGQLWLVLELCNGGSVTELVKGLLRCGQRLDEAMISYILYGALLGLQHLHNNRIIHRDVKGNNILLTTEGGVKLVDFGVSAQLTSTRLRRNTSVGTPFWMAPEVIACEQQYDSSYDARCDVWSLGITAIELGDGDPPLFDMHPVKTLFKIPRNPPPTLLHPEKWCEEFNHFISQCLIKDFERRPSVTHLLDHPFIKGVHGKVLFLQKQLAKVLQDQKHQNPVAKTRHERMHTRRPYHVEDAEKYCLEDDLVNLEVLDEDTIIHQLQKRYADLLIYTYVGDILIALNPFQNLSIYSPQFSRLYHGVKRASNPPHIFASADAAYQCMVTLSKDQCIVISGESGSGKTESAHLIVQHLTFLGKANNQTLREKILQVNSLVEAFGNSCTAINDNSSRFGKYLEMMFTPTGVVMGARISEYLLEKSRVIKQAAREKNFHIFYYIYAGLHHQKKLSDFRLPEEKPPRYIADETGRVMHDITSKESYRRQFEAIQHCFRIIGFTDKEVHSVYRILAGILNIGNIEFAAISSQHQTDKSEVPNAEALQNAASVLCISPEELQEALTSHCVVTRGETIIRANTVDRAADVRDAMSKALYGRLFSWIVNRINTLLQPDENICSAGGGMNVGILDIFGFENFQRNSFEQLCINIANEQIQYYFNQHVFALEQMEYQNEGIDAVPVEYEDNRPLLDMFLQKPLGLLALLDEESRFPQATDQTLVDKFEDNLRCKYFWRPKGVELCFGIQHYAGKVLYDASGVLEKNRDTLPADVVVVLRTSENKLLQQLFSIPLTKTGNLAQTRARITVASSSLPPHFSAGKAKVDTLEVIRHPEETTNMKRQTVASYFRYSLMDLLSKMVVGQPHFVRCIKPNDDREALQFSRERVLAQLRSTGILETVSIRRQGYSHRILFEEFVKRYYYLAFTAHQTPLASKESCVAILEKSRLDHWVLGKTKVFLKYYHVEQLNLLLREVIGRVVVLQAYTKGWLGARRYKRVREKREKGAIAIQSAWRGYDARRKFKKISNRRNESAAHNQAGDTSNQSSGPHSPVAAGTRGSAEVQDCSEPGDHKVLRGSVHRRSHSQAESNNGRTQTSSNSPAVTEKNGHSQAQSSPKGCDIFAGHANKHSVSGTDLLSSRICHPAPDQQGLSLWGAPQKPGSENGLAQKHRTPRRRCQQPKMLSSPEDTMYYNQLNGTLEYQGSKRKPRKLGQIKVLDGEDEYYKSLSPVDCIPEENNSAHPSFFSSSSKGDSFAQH
Sequence of UniProt Q86UE8 (whole entry, looked up): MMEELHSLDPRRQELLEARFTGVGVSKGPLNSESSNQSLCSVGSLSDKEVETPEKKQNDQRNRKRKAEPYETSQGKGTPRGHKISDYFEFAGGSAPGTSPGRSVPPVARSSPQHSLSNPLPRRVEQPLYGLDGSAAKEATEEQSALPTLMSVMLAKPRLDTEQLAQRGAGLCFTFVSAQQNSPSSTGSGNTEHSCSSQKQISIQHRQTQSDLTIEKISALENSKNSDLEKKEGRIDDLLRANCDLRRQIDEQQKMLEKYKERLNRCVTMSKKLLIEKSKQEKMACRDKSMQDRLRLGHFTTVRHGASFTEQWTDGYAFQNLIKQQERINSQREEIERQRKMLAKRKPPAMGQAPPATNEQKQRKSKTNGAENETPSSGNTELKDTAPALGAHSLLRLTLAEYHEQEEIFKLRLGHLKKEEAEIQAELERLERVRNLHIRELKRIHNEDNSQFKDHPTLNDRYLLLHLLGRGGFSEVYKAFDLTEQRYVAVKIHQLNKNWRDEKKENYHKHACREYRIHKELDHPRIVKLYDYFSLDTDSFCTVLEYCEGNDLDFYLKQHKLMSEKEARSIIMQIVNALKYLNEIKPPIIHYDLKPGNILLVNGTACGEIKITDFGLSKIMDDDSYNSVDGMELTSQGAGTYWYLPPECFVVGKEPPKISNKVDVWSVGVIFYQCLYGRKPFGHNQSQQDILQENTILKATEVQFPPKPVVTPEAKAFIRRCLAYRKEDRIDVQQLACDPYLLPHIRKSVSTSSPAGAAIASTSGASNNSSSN
Sequence of UniProt P35968 (whole entry, looked up): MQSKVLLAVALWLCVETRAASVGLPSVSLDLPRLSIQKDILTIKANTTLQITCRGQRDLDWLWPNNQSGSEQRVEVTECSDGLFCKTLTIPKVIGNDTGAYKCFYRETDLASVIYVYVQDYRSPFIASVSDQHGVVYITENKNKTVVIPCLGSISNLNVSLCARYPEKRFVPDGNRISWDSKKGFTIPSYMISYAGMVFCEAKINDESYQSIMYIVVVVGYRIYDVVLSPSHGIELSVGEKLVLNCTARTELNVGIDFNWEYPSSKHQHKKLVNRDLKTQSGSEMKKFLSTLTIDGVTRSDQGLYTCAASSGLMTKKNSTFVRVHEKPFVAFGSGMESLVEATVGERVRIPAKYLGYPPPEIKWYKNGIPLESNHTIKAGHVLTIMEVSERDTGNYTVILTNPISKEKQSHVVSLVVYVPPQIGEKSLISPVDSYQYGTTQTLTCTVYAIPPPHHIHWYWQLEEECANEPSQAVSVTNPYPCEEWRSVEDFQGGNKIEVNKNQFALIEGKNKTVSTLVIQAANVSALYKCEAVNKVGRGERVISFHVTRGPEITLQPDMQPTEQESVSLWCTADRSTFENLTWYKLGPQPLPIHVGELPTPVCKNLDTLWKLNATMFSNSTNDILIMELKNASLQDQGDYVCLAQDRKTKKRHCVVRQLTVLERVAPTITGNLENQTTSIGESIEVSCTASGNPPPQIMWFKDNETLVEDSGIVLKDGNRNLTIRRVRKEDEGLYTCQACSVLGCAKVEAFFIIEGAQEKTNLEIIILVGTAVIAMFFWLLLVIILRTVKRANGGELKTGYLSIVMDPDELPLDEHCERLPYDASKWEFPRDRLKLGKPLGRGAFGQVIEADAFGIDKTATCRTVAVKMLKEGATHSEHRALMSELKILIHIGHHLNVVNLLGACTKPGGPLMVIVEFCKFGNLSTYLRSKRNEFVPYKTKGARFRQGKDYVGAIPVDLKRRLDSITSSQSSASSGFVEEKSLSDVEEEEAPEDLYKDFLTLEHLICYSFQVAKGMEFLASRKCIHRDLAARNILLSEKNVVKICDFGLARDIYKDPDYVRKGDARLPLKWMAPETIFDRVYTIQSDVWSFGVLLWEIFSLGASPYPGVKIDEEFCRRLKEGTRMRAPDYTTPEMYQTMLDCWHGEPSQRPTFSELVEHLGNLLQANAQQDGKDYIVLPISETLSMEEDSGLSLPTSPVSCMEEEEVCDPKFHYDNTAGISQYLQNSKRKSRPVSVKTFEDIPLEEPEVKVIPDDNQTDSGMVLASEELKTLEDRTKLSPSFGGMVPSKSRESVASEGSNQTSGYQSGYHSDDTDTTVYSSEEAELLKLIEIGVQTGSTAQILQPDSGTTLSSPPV
Sequence of UniProt P49761 (whole entry, looked up): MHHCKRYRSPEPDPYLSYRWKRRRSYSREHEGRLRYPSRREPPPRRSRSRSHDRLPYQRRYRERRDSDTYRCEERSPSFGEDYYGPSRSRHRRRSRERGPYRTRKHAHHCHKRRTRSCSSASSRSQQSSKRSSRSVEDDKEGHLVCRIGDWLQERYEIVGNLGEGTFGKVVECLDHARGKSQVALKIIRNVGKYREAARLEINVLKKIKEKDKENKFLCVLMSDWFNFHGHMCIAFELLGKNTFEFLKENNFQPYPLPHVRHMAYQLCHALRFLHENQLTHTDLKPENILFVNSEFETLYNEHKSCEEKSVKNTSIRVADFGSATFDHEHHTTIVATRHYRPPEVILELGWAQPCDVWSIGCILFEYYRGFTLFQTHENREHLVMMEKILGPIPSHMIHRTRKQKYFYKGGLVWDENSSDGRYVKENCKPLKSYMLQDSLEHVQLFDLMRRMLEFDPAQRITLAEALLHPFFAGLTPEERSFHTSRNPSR
Sequence of UniProt P28482 (whole entry, looked up): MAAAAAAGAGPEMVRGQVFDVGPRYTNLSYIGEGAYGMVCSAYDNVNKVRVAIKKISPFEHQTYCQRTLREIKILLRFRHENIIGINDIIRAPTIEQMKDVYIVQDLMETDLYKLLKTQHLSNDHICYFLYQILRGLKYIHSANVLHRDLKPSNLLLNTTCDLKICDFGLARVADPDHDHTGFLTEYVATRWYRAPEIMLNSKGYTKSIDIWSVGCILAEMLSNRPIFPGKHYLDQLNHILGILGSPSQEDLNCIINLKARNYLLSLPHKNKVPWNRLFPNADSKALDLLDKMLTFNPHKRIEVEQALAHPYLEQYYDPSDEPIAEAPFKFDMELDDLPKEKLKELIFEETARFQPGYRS

Sample 1
Target: Alpha-1B adrenergic receptor (ADRA1B, Homo sapiens, UniProt P35368)
Sequence of UniProt P35368 (whole entry, looked up): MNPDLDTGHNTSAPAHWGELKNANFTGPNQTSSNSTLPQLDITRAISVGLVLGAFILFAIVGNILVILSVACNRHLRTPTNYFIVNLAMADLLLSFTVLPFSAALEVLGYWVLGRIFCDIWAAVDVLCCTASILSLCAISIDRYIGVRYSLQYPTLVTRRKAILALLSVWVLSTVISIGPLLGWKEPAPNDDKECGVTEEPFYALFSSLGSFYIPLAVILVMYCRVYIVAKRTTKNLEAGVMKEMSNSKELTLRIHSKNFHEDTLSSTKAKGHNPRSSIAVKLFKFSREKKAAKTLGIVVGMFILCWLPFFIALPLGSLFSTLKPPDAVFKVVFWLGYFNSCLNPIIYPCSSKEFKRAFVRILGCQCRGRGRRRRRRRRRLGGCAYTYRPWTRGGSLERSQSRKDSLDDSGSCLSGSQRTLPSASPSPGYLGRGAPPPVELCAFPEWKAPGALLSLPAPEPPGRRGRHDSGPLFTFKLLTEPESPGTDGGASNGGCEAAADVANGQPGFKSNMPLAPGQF
Observed: binding
Technique: radioligand binding
Tested at: 10 µM
| SMILES | inhibition [%] |
| --- | --- |
| COc1cccc(CNC(=O)c2nc3scc(COCc4ccc(C(=O)O)cc4)c3c(=O)[nH]2)c1 | 7.58 |
| Cc1cc(C)c(-n2ccn3nc(-c4cccnc4)cc23)cc1NC(=O)c1cc(C#N)cc(S(F)(F)(F)(F)F)c1 | -0.87 |
| CN1C(=O)[C@@H](N2CCc3cn(Cc4ccccc4)nc3C2=O)COc2ccccc21 | -13.4 |
| CCOCCn1cc(C(=O)Nc2ccc(-n3nc(-c4cccnc4)cc3C(F)(F)F)cn2)ccc1=O | -16.4 |
| O=C(NC[C@@H]1[C@H]2CN(C(=O)OCc3cc(C(F)(F)F)cc(C(F)(F)F)c3)C[C@@H]12)c1ccc2[nH]nnc2c1 | 33.4 |
| O=C(Nc1cnc(Oc2ccc(F)cc2)nc1)N1CCc2ncccc2[C@@H]1c1ccc(F)cc1 | -4.4 |
| O=C1CCc2cc(Nc3cc(OC4CCOCC4)c([N+](=O)[O-])cc3Cl)ccc2N1 | 17.2 |

Sample 2
Host: mouse
Sample: microsomes or S9
Tested at: 2 µM
Time: 0.5 h
| SMILES | remaining compound [%] |
| --- | --- |
| Nc1ccc(F)cc1-c1cc(Cl)cc(Cl)c1 | 2.17 |
| CN(C)Cc1nnc([C@H]2C[C@H](NC(=O)C3CCC(C(C)(C)C)CC3)C2)n1C (some centres unmarked) | 42.3 |
| CCOc1ccc(-c2[nH]c3[nH]c(=O)[nH]c(=O)c3c2-c2ccc(OC)cc2)cc1OC | 74.3 |
| CCc1ccc(/C=N/Nc2nn3cnnc3c3ccccc23)cc1 | 16.1 |
| Nc1c2c(nc3ccccc13)N(C1CCCCC1)CC2 | 1.37 |

Sample 3
SMILES: O=C1C(Cl)=C(N2C(=O)CCC2=O)C(=O)c2ccccc21
Observed: enzyme activity
Action: inhibitor
Tested at: 0.5 µM
Baseline: control
| target | remaining activity [%] |
| --- | --- |
| CLK3 (Homo sapiens, UniProt P49761) | 114 |
| Myosin-IIIb (MYO3B, Homo sapiens, UniProt Q8WXR4) | 112 |
| CDC42BPB (Homo sapiens, UniProt Q9Y5S2) | 98.6 |
| PRKG2 (Homo sapiens, UniProt Q13237) | 114 |
| TLK2 (Homo sapiens, UniProt Q86UE8) | 117 |
| DDR2 (Homo sapiens, UniProt Q16832) | 95.8 |
| MAPK1 (Homo sapiens, UniProt P28482) | 73.6 |
| KDR (Homo sapiens, UniProt P35968) | 88.3 |
| RPS6KA4 (Homo sapiens, UniProt O75676) | 115 |
| Cyclin-dependent kinase 9, with cyclin K (CDK9, Homo sapiens, UniProt P50750) | 97.2 |
| MARK4 (Homo sapiens, UniProt Q96L34) | 99.6 |
| NEK3 (Homo sapiens, UniProt P51956) | 102 |
| ROCK1 (Homo sapiens, UniProt Q13464) | 106 |

Other studies, line by line
| Compound | system | conditions | endpoint | value |
| --- | --- | --- | --- | --- |
| O=C1CCC(N2Cc3cc(C4CCN(Cc5ccccc5)CC4)ccc3C2=O)C(=O)N1 (centres unmarked) | ICR mouse, male, plasma | intravenous, 1.0 mg/kg | volume of distribution (Vz) | 13.7 L/kg |
